Experimental data collected from several papers.
Lines come from different studies, so protocols differ. Numbers after ± are the reported error.

SMILES | technique | sample | concentration | pH | setting | logD
CCOC(=O)[C@@](CC)(CCCSCCOCCOCCNC(=O)OC(C)(C)C)NC(=O)c1ccc(C2CC2)c(Cc2ccc(F)cc2)n1 | – | – | – | – | – | 2.5
N=C(N)c1ccc2cc(C(=O)Nc3ccccc3)cc(-c3cn[nH]c3)c2c1.O=C(O)C(F)(F)F | – | octanol/buffer | 67 µM | pH 7.4 | – | 0.01
COc1cccc(OC)c1-c1cc(C(=O)NC2(C(=O)O)C3CC4CC(C3)CC2C4)nn1-c1ccc(C(=O)N(C)CCOCCN(C)C(=O)[C@H](CCCCNC(=O)[C@H](CC(C)C)NC(=O)C2OC2C(=O)O)NC(=O)CN2CCN(CC(=O)[O-])CCN(CC(=O)[O-])CCN(CC(=O)[O-])CC2)cc1C(C)C.[177Lu+3] (mixture of isomers) | – | n-octanol/buffer | – | pH 7.4 | 177Lu-labelled | -2.14
N=C(N)NC(=O)c1nc(Cl)c(NCc2cc(Cl)cc(Cl)c2)nc1N.O=C(O)C(F)(F)F | – | octanol/buffer | 67 µM | pH 7.4 | – | 1.94
CC(C)(C)c1cc(-c2ccc3cc4ccccc4nc3n2)nc(-c2ccc3cc4ccccc4nc3n2)c1.Cc1ccncc1.[Cl-].[Cl-].[Ru+2].c1ccc2cc3nc4c5cccnc5c5ncccc5c4nc3cc2c1 | – | 1-octanol/PBS | – | pH 7.4 | – | 0.813 ± 0.016
COc1cc(-c2nc3ccccc3s2)cc(CN2CCN(CC(=O)OC(C)(C)C)CCN(Cc3cc(-c4nc5ccccc5s4)cc(OC)c3O)CC2)c1O | fluorescence intensity | – | – | – | – | 1.22 ± 0.04
N=C(N)c1ccc2cc(C(=O)Nc3ccc4c(c3)C(c3ccccc3)=NCC4)ccc2c1.O=C(O)C(F)(F)F.O=C(O)C(F)(F)F | – | octanol/buffer | 67 µM | pH 7.4 | – | 1.1
CNC(=O)C[C@H](Cc1ccc(C#N)cc1)NC(=O)c1cc(-c2ccc(CN[C@H](C)c3ccc(C)cc3)o2)ccc1Cl | chromatographic HPLC | – | – | pH 7.5 | – | 3.2
CCC(=[NH+][Pt-2]1([Cl])([O]C(C)=O)([O]C(C)=O)[NH2+]CCC[NH2+]1)N(C)CCNc1c2ccccc2[nH+]c2ccccc12.O=[N+]([O-])[O-].O=[N+]([O-])[O-] | shake-flask | 1-octanol/water | – | pH 7 | – | -1.36 ± 0.17
CN(CCC#N)c1nc(NCC[C@H]2CCCN2C)nc2sc(-c3ccccc3)cc12 | chromatographic | – | – | – | – | 3.2 ± 0.2
[2H]C([2H])([2H])C1(C([2H])([2H])[2H])NC(=O)N(c2ccc(F)c(C(C)(F)F)c2)C1=O | chromatographic HPLC | – | – | pH 7.4 | – | 2.5
O=C(CN1CN(c2ccccc2)C2(CCN(C(=O)c3ccc4[nH]ncc4c3)CC2)C1=O)N(CCO)CC(F)(F)F | – | – | – | pH 7.4 | – | 2.5
COc1cc(-c2nc3ccccc3s2)cc(CN2CCNCCN(Cc3cc(-c4nc5ccccc5s4)cc(OC)c3O)CC2)c1O | fluorescence intensity | – | – | – | – | 1.23 ± 0.04
CCC(=[NH+][Pt-2]1([Cl])[NH2+]CCC[NH2+]1)N(C)CCNc1c2ccccc2[nH+]c2ccccc12.O=[N+]([O-])[O-].O=[N+]([O-])[O-] (stereo not drawn) | shake-flask | 1-octanol/0.9% NaCl | – | pH 5 | – | -1.39 ± 0.06
CC(C)Oc1ccc2cc(C(=N)N)ccc2c1.CS(=O)(=O)O | – | octanol/buffer | 67 µM | pH 7.4 | – | -0.07
Cn1ccc([C@H](CCO)Nc2nc(N3CCOCC3)c3cc(-c4ccccc4)sc3n2)n1 | chromatographic | – | – | – | – | 3.8
CCC(=[NH+][Pt-2]1([Cl])([O]C(=O)CC(C)C)([O]C(=O)CC(C)C)[NH2+]CCC[NH2+]1)N(C)CCNc1c2ccccc2[nH+]c2ccccc12.O=[N+]([O-])[O-].O=[N+]([O-])[O-] | shake-flask | 1-octanol/0.9% NaCl | – | pH 5 | – | 0.27 ± 0.02

SMILES | technique | sample | concentration | pH | setting | logD
CCOC(=O)C(CC)(CCCSCCOCCN)NC(=O)c1ccc(C2CC2)c(Cc2ccc(F)cc2)n1 (stereo not drawn) | – | – | – | – | – | 2.7
CCCCCCCCCCCCCCCCCC(=O)[O][Pt-2]1([OH])([Cl])([NH+]=C(CC)N(C)CCNc2c3ccccc3[nH+]c3ccccc23)[NH2+]CCC[NH2+]1.O=[N+]([O-])[O-].O=[N+]([O-])[O-] | shake-flask | 1-octanol/water | – | pH 7 | – | 0.57 ± 0.02
COc1cc2c(cc1O[11CH3])CCN(C(C)CCc1ccc(O)cc1)C2 (racemic) | shake-flask | n-octanol/phosphate buffer | – | pH 7.4 | – | 1.34
O=C(CN1CN(c2ccccc2)C2(CCN(C(=O)c3ccc4[nH]ncc4c3)CC2)C1=O)Nc1ccccn1 | – | – | – | pH 7.4 | – | 2.63
CNC(=O)C1CCCN(C(=O)C2CC3CCC2N3C(=O)[C@@H]2C[C@@H](O)CN2C(=O)NCc2cccc(Cl)c2F)C1 (mixture of isomers) | shake flask, octanol/buffer | – | – | pH 7.4 | – | 0.59
COc1cc(NC(=O)c2ccc3cc(C(=N)N)ccc3c2)cc(OC(C)C)c1.O=C(O)C(F)(F)F | – | octanol/buffer | 67 µM | pH 7.4 | – | 1.84
COc1cccc(OC)c1-c1cc(C(=O)NC2(C(=O)O)C3CC4CC(C3)CC2C4)nn1-c1ccc(C(=O)NCCNC(=O)[C@H](CCCCNC(=O)[C@H](CC(C)C)NC(=O)C2OC2C(=O)O)NC(=O)CN2CCN(CC(=O)[O-])CCN(CC(=O)[O-])CCN(CC(=O)[O-])CC2)cc1C(C)C.[177Lu+3] (mixture of isomers) | – | n-octanol/buffer | – | pH 7.4 | 177Lu-labelled | -1.03
CCCCCCCC/C=C/CCCCCCCC(=O)[O][Pt-2]1([OH])([Cl])([NH+]=C(CC)N(C)CCNc2c3ccccc3[nH+]c3ccccc23)[NH2+]CCC[NH2+]1.O=[N+]([O-])[O-].O=[N+]([O-])[O-] | shake-flask | 1-octanol/water | – | pH 7 | – | 0.78 ± 0.24
Cl.N=C(N)c1ccc2cc(NS(=O)(=O)c3ccccc3)ccc2c1 | – | octanol/buffer | 67 µM | pH 7.4 | – | -0.63
[Cl-].[Cl-].[Ru+2].c1cc(-c2ccc3cccnc3n2)nc(-c2ccc3cccnc3n2)c1.c1ccc2cc3nc4c5cccnc5c5ncccc5c4nc3cc2c1 | – | 1-octanol/PBS | – | pH 7.4 | – | 1.22 ± 0.055
N=C(N)c1ccc2cc(C(=O)Nc3ccc4c(c3)C(C3CCCCC3)=NCC4)ccc2c1.O=C(O)C(F)(F)F.O=C(O)C(F)(F)F | – | octanol/buffer | 67 µM | pH 7.4 | – | 1.03
N#Cc1cccc(N2CN(CC(=O)NCC(F)(F)F)C(=O)C23CCN(C(=O)c2cnc4[nH]ncc4c2)CC3)c1 | – | – | – | pH 7.4 | – | 1.88
COc1cccc(OC)c1-c1cc(C(=O)NC2(C(=O)O)C3CC4CC(C3)CC2C4)nn1-c1ccc(C(=O)N(C)CCCN(C)CCCN(C)C(=O)[C@H](CCCCNC(=O)[C@H](CC(C)C)NC(=O)C2OC2C(=O)O)NC(=O)CN2CCN(CC(=O)[O-])CCN(CC(=O)[O-])CCN(CC(=O)[O-])CC2)cc1C(C)C.[177Lu+3] (mixture of isomers) | – | n-octanol/buffer | – | pH 7.4 | 177Lu-labelled | -1.92
Cc1cc(C(=O)N[C@@H](CC(=O)NC(C)(C)C)C(=O)NCCNC(=O)c2cc(-c3ccccc3)ccn2)no1 | – | – | – | pH 7.4 | – | 2.68
COC(=O)CN1CCN(Cc2cc(-c3nc4ccccc4s3)cc(OC)c2O)CCN(Cc2cc(-c3nc4ccccc4s3)cc(OC)c2O)CC1 | fluorescence intensity | – | – | – | – | 1.2 ± 0.1
Cc1nc(C)c(-c2ccnc(Nc3cccc(C#N)c3)n2)s1 | – | octanol/buffer | 67 µM | pH 7.4 | – | 4.16

A few entries again:
SMILES | technique | sample | concentration | pH | setting | logD
COc1cc(-c2nc3ccccc3s2)cc(CN2CCN(CC(=O)OC(C)(C)C)CCN(Cc3cc(-c4nc5ccccc5s4)cc(OC)c3O)CC2)c1O | fluorescence intensity | – | – | – | – | 1.22 ± 0.04
COc1cccc(OC)c1-c1cc(C(=O)NC2(C(=O)O)C3CC4CC(C3)CC2C4)nn1-c1ccc(C(=O)NCCNC(=O)[C@H](CCCCNC(=O)[C@H](CC(C)C)NC(=O)C2OC2C(=O)O)NC(=O)CN2CCN(CC(=O)[O-])CCN(CC(=O)[O-])CCN(CC(=O)[O-])CC2)cc1C(C)C.[177Lu+3] (mixture of isomers) | – | n-octanol/buffer | – | pH 7.4 | 177Lu-labelled | -1.03
CCC(=[NH+][Pt-2]1([Cl])([O]C(=O)CC(C)C)([O]C(=O)CC(C)C)[NH2+]CCC[NH2+]1)N(C)CCNc1c2ccccc2[nH+]c2ccccc12.O=[N+]([O-])[O-].O=[N+]([O-])[O-] | shake-flask | 1-octanol/0.9% NaCl | – | pH 5 | – | 0.27 ± 0.02
CCCCCCCC/C=C/CCCCCCCC(=O)[O][Pt-2]1([OH])([Cl])([NH+]=C(CC)N(C)CCNc2c3ccccc3[nH+]c3ccccc23)[NH2+]CCC[NH2+]1.O=[N+]([O-])[O-].O=[N+]([O-])[O-] | shake-flask | 1-octanol/water | – | pH 7 | – | 0.78 ± 0.24
N=C(N)c1ccc2cc(C(=O)Nc3ccc4c(c3)C(c3ccccc3)=NCC4)ccc2c1.O=C(O)C(F)(F)F.O=C(O)C(F)(F)F | – | octanol/buffer | 67 µM | pH 7.4 | – | 1.1
